Measured values from different studies.
Protocols differ between the studies behind these lines. “And” joins repeats or separate records; there may be more than shown.
Target: SRSF protein kinase 3 (SRPK3, Homo sapiens, UniProt Q9UPE1)
Sequence of UniProt Q9UPE1 (whole entry, looked up): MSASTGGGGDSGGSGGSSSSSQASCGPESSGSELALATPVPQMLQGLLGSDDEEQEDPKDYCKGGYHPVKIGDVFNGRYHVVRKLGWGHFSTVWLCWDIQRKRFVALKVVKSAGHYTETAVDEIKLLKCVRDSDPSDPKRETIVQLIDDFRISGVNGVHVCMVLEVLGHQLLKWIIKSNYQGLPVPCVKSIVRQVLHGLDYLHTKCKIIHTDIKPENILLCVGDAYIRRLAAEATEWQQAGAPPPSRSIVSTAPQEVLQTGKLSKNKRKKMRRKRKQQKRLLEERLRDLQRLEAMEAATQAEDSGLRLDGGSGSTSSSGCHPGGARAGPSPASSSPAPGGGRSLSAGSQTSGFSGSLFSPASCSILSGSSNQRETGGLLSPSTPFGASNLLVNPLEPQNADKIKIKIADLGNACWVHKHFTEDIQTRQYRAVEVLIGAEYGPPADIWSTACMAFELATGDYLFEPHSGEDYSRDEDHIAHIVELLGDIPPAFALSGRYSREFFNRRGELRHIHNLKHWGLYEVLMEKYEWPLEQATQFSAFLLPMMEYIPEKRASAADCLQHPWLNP

Structure (SMILES) = COc1cc(Nc2nccc(-c3cnn4nc(OC)ccc34)n2)cc(C(F)(F)F)c1; test = binding, competition with immobilised ligand; conditions = 1 µM; quantity = remaining binding; result = 98%
Structure (SMILES) = O=C(Cc1ccc(OCc2ccccc2)cc1)NC1(C(=O)O)CCN(C(=O)c2ccc(-c3cccc(Cl)c3)cc2)CC1; test = enzyme activity, inhibitor; conditions = 10 µM; quantity = activity vs control; result = 175%
Structure (SMILES) = COc1cccc(NC(=O)Nc2ccccc2O)c1; test = enzyme activity, inhibitor, FRET; conditions = 10 µM; quantity = inhibition; result = 72%
Structure (SMILES) = Cc1cccc(O[C@H]2CCC[C@@H](C(C)CNCc3ccncc3)C2)c1 (relative stereo); test = enzyme activity, inhibitor; conditions = 10 µM; quantity = inhibition; result = -4%
Structure (SMILES) = Cc1cnc2nc1Nc1cccc(c1)COC/C=C/COCc1cc(ccc1OCCN1CCOCC1)N2; test = binding, competition with immobilised ligand; conditions = 0.1 µM; quantity = remaining binding; result = 94%
Structure (SMILES) = CN1CCN(Cc2ccc(NC(=O)c3cccc(C#Cc4cnc(N)c5ncccc45)c3)cc2C(F)(F)F)CC1; test = cell-free assay, competition with immobilised ligand; conditions = 50 nM; quantity = remaining binding; result = 100%
Structure (SMILES) = CN(C(=O)N(C)c1ccc(C#N)cc1)c1ccccc1; test = enzyme activity, inhibitor, FRET; conditions = 10 µM; quantity = inhibition; result = 3.3%
Structure (SMILES) = CNC(=O)C[C@H](Cc1ccc(C#N)cc1)NC(=O)c1cc(-c2ccc(CN[C@H](C)c3ccc(C)cc3)o2)ccc1Cl; test = enzyme activity, inhibitor; conditions = 1 µM; quantity = activity vs control; result = 109%
Structure (SMILES) = O=C(Nc1ccccc1)Nc1cccc(O)c1; test = kinase activity, Z'-LYTE; quantity = Hill slope; result = 1.07
Structure (SMILES) = Nc1ncc(-c2cc(-c3cnn(CC(F)(F)F)c3)ncc2F)nc1C(=O)NC1CNCC(F)C1 (stereo not shown); test = enzyme activity; conditions = 1 µM; how to read = baseline: DMSO control; quantity = remaining activity; result = 97.5%
Structure (SMILES) = Cc1ccc(NC(=O)Nc2ccc(C#N)cc2)cc1; test = binding, KINOMEscan competitive binding; conditions = concentration not given; quantity = inhibition; result = 36%
Structure (SMILES) = COCC12C(=O)NC3C4(C(OC)CC1O)C1CC5(O)C(OC)C(O)C(OC(C)=O)(C1C5OC(=O)c1ccccc1)C3(O)C(OC)C24 (stereo not shown); test = kinase activity, inhibitor, ProQinase kinase profiling; conditions = 25 µM; how to read = baseline: control; quantity = remaining activity; result = 97% and 89%
Structure (SMILES) = O=C(Nc1ccccc1)Nc1cccc(C(F)(F)F)c1; test = binding, KINOMEscan competitive binding; conditions = concentration not given; quantity = inhibition; result = 82%
Structure (SMILES) = C=CC(=O)Nc1cccc(-c2cnc3[nH]cc(C(=O)NC(C)(C)C)c3n2)c1; test = kinase activity; conditions = 0.1 µM; quantity = inhibition; result = 2% and -2%
Structure (SMILES) = CNC(=O)C1CCN(c2cc(C)c(F)cc2NC(=O)c2ccc(-c3cc(O)ccc3C)c(C)c2)CC1; test = binding, competition with immobilised ligand; conditions = 1 µM; quantity = remaining binding; result = 84%
Structure (SMILES) = O=C=[N][Ru-4]123([n]4c5ccc(O)cc5c5c6c(c7cc(F)c[n+]1c7c54)C(=O)NC6=O)[S+]1CC[S+]2CC[S+]3CC1 (stereo not shown); test = enzyme activity; conditions = 100 nM, human enzyme, together with: 10 µM ATP; how to read = baseline: untreated; quantity = remaining activity; result = 57%
Structure (SMILES) = COc1cccc(NC(=O)Nc2ccccc2)c1; test = binding, KINOMEscan competitive binding; conditions = concentration not given; quantity = inhibition; result = 89%
Structure (SMILES) = COc1ccc(NC(=O)Nc2ccc3c(c2)C(=O)N(C(C)CO)CC(C)C(CN(C)Cc2ccc4c(c2)OCO4)O3)cc1 (stereo not shown); test = binding, competition with immobilised ligand; conditions = 10 µM; quantity = remaining binding; result = 100%
Structure (SMILES) = C=CC(=O)N1CCCC(n2c(=O)c3ncccc3n(Cc3ccc(Oc4ccccc4)cc3)c2=O)C1 (stereo not shown); test = cell-free assay, competition with immobilised ligand; conditions = 1 µM; quantity = remaining binding; result = 100%
